# Published values gathered from unrelated publications.
# Lines come from different studies, so protocols differ. Values joined by “and” are separate records of one study, mostly repeats; a detail may differ. ± gives the spread as reported.
# CNR2: Cannabinoid receptor 2 (CNR2, Homo sapiens, UniProt P34972)
# Kelch domain-containing protein 2: Kelch domain-containing protein 2 (UniProt Q9Y2U9)
# ESR1: Estrogen receptor (ESR1, Homo sapiens, UniProt P03372)
# OPRM1: Mu-type opioid receptor (OPRM1, Homo sapiens, UniProt P35372)
# ESR2: Estrogen receptor beta (ESR2, Homo sapiens, UniProt Q92731)
Molecule,target,assay,test system,conditions,scale,endpoint,value
CC(C)(NC(=O)c1nn(CC2CCCC2)c2ccccc12)c1cccc(C(N)=O)c1,CNR2,"calcium mobilization, agonist",CHO-K1 expressing Gαq16,,"reference: CP55,940 maximum",Emax,40 ± 9%
TNFFELTTKLHR,HIV-1 neutralising antibody 4E10,"phage binding, M13 phage ELISA",peptide,concentration not given,lower = stronger binding,binding titer,1.4e+07 M13/mL
VIKVIGVGGGG,Kelch domain-containing protein 2,native mass spectrometry,"peptide, 200 mM ammonium acetate","20 µM Kelch domain-containing protein 2, pH 7",reference: total Kelch domain-containing protein 2 signal,fraction of protein bound,0.8%
CC(C)(NC(=O)c1nn(CCC2CCCC2)c2ccccc12)c1cccc(C(N)=O)c1,CNR2,"calcium mobilization, agonist",CHO-K1 expressing Gαq16,,"reference: CP55,940 maximum",Emax,29 ± 11%
O=C(O[C@@H]1Cc2c(O)cc(O)cc2O[C@@H]1c1cc(O)c(O)c(O)c1)c1cc(O)c(O)c(O)c1,"KDM4E (Homo sapiens, UniProt B2RXH2)","inhibitor, FDH-coupled",,,reference: 20 µM over 2.5 µM ferrous ammonium sulfate,IC50 ratio,5
RYRDPTGMYY,"PIM1 (Homo sapiens, UniProt P11309)","substrate, coupled enzyme",peptide,"pH 7.4, room temperature, added: 1 mM ATP, 20 mM MgCl2",,kcat/Km,1400 M⁻¹ s⁻¹
O=[PH](O)O,"Orotidine 5'-phosphate decarboxylase (Saccharomyces cerevisiae S288c, UniProt P03962, T100A)",dianion-activated decarboxylation,,,reference: wild type,activation energy change,< 1 kcal/mol and 0.9 kcal/mol
C[C@]1(Cn2ccnn2)[C@H](C(=O)O)N2C(=O)C[C@H]2S1(=O)=O,"VIM-2 (Escherichia coli, UniProt Q5U7L7)","enzyme activity, inhibitor",,50 µM,,inhibition,≤ 25%
Cc1cc(O)ccc1-c1c[se]cc1-c1ccc(O)cc1C,ESR1,antagonist,HEK293T,"highest tested concentration, added: estradiol 10 nM",reference: estradiol alone,efficacy,80 ± 10%
CCOC(=O)CN(CCN(CCN(CC(=O)O)CC(=O)OCC)CC(=O)O)CC(=O)O,americium(III),"americium-241 binding, solvent extraction",,pH 1.3,"reference: compound over DTPA, higher = weaker binding",ligand concentration ratio,~20 fold
C[N+](C)(C)CCOC(N)=O.[Cl-],"Chrnb2/Chrna6 (Rattus norvegicus, UniProt P12390+P43143, L273S/L280S/L348M/R364A/R365A/R367A)","ion current, agonist",,"concentration not given, rat receptor, unit not given",reference: acetylcholine maximum current,efficacy,0.87 ± 0.04
DDEPEYIEFDAHN,"CSK (Homo sapiens, UniProt P41240)","substrate, coupled enzyme",peptide,"pH 7.4, room temperature, added: 1 mM ATP, 5 mM MnCl2",,kcat/Km,850 M⁻¹ s⁻¹
Cc1ccc(Oc2ccc(C(=O)N[C@H](CN3CCN(c4cccc(O)c4)[C@@H](C)C3)C(C)C)cc2)cc1,OPRM1,antagonist,CHO,added: DAMGO,,Ke,20 ± 6 nM
COC(=O)[C@H]1[C@@H](c2ccc(Cl)c(Cl)c2)C[C@@H]2CC[C@H]1N2CCOCCOCCOCCOCCOCCNC(=O)c1ccc2c(c1)C1(OC2=O)c2ccc(N3CCC3)cc2[Si](C)(C)c2cc(N3CCC3)ccc21,"SLC6A3 (Homo sapiens, UniProt Q01959)","dSTORM, DBSCAN clustering",CAD expressing SLC6A3,10 nM,,fraction in nanodomains,0.31
Oc1ccc(-c2c[se]cc2-c2ccc(O)cc2)cc1,ESR2,antagonist,HEK293T,"highest tested concentration, 24 h, added: estradiol 10 nM",reference: estradiol alone,efficacy,49 ± 9%
CC(C)[C@@H](CN1CCN(c2cccc(O)c2)[C@@H](C)C1)NC(=O)c1ccc(Oc2cccc(F)c2)cc1,OPRM1,antagonist,CHO,added: DAMGO,,Ke,30 ± 9 nM
Cc1cc(O)cc(C)c1-c1ccc(-c2c(C)cc(O)cc2C)[se]1,ESR2,antagonist,HEK293T,"highest tested concentration, 24 h, added: estradiol 10 nM",reference: estradiol alone,efficacy,66 ± 3%
COc1ccc(Oc2ccc(C(=O)N[C@H](CN3CCN(c4cccc(O)c4)[C@@H](C)C3)C(C)C)cc2)cc1,"OPRK1 (Homo sapiens, UniProt P41145)",antagonist,CHO,added: U69593,,Ke,0.6 ± 0.18 nM
O=C1C=CC(=O)C=C1,"Enoyl-ACP reductase (Thermus thermophilus, UniProt P83818)","substrate, steady-state turnover",,,,NAD(P)H oxidation rate,increased
SSAIGPYKGG,Kelch domain-containing protein 2,native mass spectrometry,"peptide, 200 mM ammonium acetate","20 µM Kelch domain-containing protein 2, pH 7",reference: total Kelch domain-containing protein 2 signal,fraction of protein bound,0.8%
cyclo(GLWFGPRL) (cyclic),"diapause hormone receptor (Helicoverpa zea, UniProt S5LVZ5)","receptor activation, agonist, aequorin luminescence",CHO-K1 expressing receptor,1 µM,reference: model ligand response,agonist activity,3.9%
CC[C@H](C)[C@H](NC(=O)[C@@H]1CSSC[C@@H]2NC(=O)[C@H]([C@@H](C)O)NC(=O)[C@H](C(C)C)NC(=O)CNC(=O)[C@H](CC(N)=O)NC(=O)[C@@H](NC(=O)[C@@H]3CCCN3C(=O)[C@H](CC(N)=O)NC(=O)[C@H](CC(N)=O)NC(=O)[C@H](CC(C)C)NC(=O)[C@H](Cc3ccc(O)cc3)NC(=O)[C@H](CCCCN)NC(=O)[C@H](CO)NC(=O)[C@@H](N)CC(N)=O)CSSC[C@H](NC(=O)[C@H](CCCNC(=N)N)NC(=O)[C@H](Cc3ccc(O)cc3)NC(=O)CNC(=O)[C@H](CO)NC(=O)[C@@H]3CCCN3C2=O)C(=O)N[C@@H](CO)C(=O)N[C@@H]([C@@H](C)CC)C(=O)N[C@@H](C(C)C)C(=O)N[C@@H](CC(=O)O)C(=O)N[C@@H](CCCCN)C(=O)N[C@@H](CCC(N)=O)C(=O)N1)C(=O)N[C@@H](CCCCN)C(=O)N[C@@H](CCCCN)C(=O)N[C@@H](CCC(=O)O)C(=O)O,"Trpv1 (Mus musculus, UniProt Q704Y3, E571A)","ion current, activator, whole-cell patch clamp",HEK293T,"pH 7.2, 22 °C",,Hill coefficient,0.79 ± 0.08
CC(C)C[C@H](NC(=O)[C@H](CO)NC(=O)[C@H](CC(C)C)NC(=O)[C@@H]1CCCN1C(=O)CNC(=O)[C@H](Cc1ccccc1)NC(=O)[C@H](Cc1ccccc1)NC(=O)Cc1ccc2ccccc2c1)C(=O)N[C@@H](CCCNC(=N)N)C(=O)N[C@@H](CO)C(=O)N[C@@H](CCCCN)C(=O)O,"MMP9 (Homo sapiens, UniProt P14780)","substrate, HPLC",,"500 µM, 72 h, pH 7.5, 37 °C",,hydrolysis product,70%
Nc1nnc(S)s1,"Peptide deformylase (def, Escherichia coli, UniProt P0A6K3)","activator, aminopeptidase-coupled",50 mM potassium phosphate,"500 µM, more than 2 days preincubation, pH 7.0",,initial rate,17.5 mOD/min
NS(=O)(=O)NCCNc1nonc1C(=NO)Nc1ccc(F)c(Br)c1,"IDO1 (Homo sapiens, UniProt P14902)","inhibitor, western blot",HeLa,"1 µM, 2 h pretreatment, then 24 h, added: IFN-γ 5 ng/mL plus degrader 5 µM",,IDO1 degradation,inhibited
cAMP,"Potassium/sodium hyperpolarization-activated cyclic nucleotide-gated channel 2, C-terminal region (Hcn2, Mus musculus, UniProt O88703, R635A)",isothermal titration calorimetry,,"R635A, low-affinity site",,stoichiometry,0.45 ± 0.02
Clc1ccc(Cl)c(-c2c(Cl)ccc(Cl)c2Cl)c1Cl,ESR1,"reporter gene, antagonist, ER-CALUX",T47D.Luc,"24 h, added: estradiol 5 pM",,IC25,7.5 µM
Oc1ccc(-c2ccc(-c3ccc(O)cc3F)[se]2)c(F)c1,ESR1,antagonist,HEK293T,"highest tested concentration, added: estradiol 10 nM",reference: estradiol alone,efficacy,59 ± 10%
COc1cc2c(cc1O)[C@@H]1Cc3ccc(O)c(OC)c3CN1CC2,"ache (Electrophorus electricus, UniProt O42275)","enzyme activity, inhibitor, Ellman",,up to 0.1 µg/mL,,IC50,inactive
O=C(Cc1ccc(-c2ccccc2)cc1)NC1CCSC1=O (stereo not drawn),"lasR (Pseudomonas aeruginosa, UniProt P25084)","reporter gene, agonist",PAO1 MW1 pUM15,"10 µM, added: OdDHL",,activation,> 20%

# Some of these lines once more:
Molecule,target,assay,test system,conditions,scale,endpoint,value
COC(=O)[C@H]1[C@@H](c2ccc(Cl)c(Cl)c2)C[C@@H]2CC[C@H]1N2CCOCCOCCOCCOCCOCCNC(=O)c1ccc2c(c1)C1(OC2=O)c2ccc(N3CCC3)cc2[Si](C)(C)c2cc(N3CCC3)ccc21,"SLC6A3 (Homo sapiens, UniProt Q01959)","dSTORM, DBSCAN clustering",CAD expressing SLC6A3,10 nM,,fraction in nanodomains,0.31
Oc1ccc(-c2c[se]cc2-c2ccc(O)cc2)cc1,ESR2,antagonist,HEK293T,"highest tested concentration, 24 h, added: estradiol 10 nM",reference: estradiol alone,efficacy,49 ± 9%
CC(C)[C@@H](CN1CCN(c2cccc(O)c2)[C@@H](C)C1)NC(=O)c1ccc(Oc2cccc(F)c2)cc1,OPRM1,antagonist,CHO,added: DAMGO,,Ke,30 ± 9 nM
